Results pooled from the literature.
“And” joins repeats or separate records; there may be more than shown.
CHEK2: Serine/threonine-protein kinase Chk2 (CHEK2, Homo sapiens, UniProt O96017)

| Compound | target | assay | setting | scale | endpoint | result |
| --- | --- | --- | --- | --- | --- | --- |
| Cc1cccc(-c2ccc3nc(NC(=O)C4CCCO4)nn3c2)c1 (stereo not shown) | CHEK2 | enzyme activity, Dundee kinase panel | 10 µM |  | remaining activity | 99% |
| O=C=[N][Ru-4]123([n]4c5ccc(O)cc5c5c6c(c7cc(F)c[n+]1c7c54)C(=O)NC6=O)[S+]1CC[S+]2CC[S+]3CC1 (stereo not shown) | CHEK2 | enzyme activity | 100 nM, human enzyme, added: 10 µM ATP | baseline: untreated | remaining activity | 89% |
| C=CC(=O)N1CCCC(n2c(=O)c3ncccc3n(Cc3ccc(Oc4ccccc4)cc3)c2=O)C1 (stereo not shown) | CHEK2 | cell-free assay, competition with immobilised ligand | 1 µM |  | remaining binding | 99% |
| Cc1ccc(C)c(-c2ccc3nc(NC(=O)C4CCCCC4)nn3c2)c1 | CHEK2 | enzyme activity, Dundee kinase panel | 10 µM |  | remaining activity | 76% |
| COc1ccc(O)cc1-c1c[nH]c2ncc(-c3cncc(C(=O)N(C)C)c3)cc12 | CHEK2 | binding, competition with immobilised ligand | 0.2 µM |  | inhibition | 12.2% |
| C=CC(=O)N1Cc2nc(-c3cc(-c4cc(Cl)cnc4Cl)c(F)cc3F)n(-c3ccncn3)c2C1 | CHEK2 | cell-free assay, inhibitor | 1 µM |  | inhibition | 9.3% |
| COc1c(OCCCN2CCOCC2)ccc2c1N=C(NC(=O)c1cnc(N)nc1)N1CCN=C21 | CHEK2 | kinase activity, inhibitor | 1 µM | baseline: untreated control | remaining activity | 111% |
| Cc1nc2c(F)cc(-c3nc(Nc4ccc(CNC(=O)CCCCCCC(=O)NO)cc4)ncc3F)cc2n1C(C)C | CHEK2 (Homo sapiens, UniProt O96017, R145W) | enzyme activity, inhibitor | 1 µM |  | inhibition | 64% |
| Cc1cnc2nc1Nc1cccc(c1)COC/C=C/COCc1cc(ccc1OCCN1CCOCC1)N2 | CHEK2 | binding | 0.1 µM |  | remaining binding | 87% |
| COc1c(Cl)cccc1Nc1c(-c2ccncc2C#C[C@@]2(C)CCCN2C(=O)/C=C/CN(C)C)[nH]c2c1C(=O)NCC2 | CHEK2 | binding, competition with immobilised ligand | 3 µM |  | remaining binding | 92% |
| NC(=O)C[C@H]1CCc2sc3ncnc(O[C@H]4CC[C@H](N5CCOCC5)CC4)c3c21 | CHEK2 | enzyme activity, inhibitor | 10 µM |  | inhibition | 3% |
| COc1cc(Nc2nccc(-c3cnn4nc(OC)ccc34)n2)cc(C(F)(F)F)c1 | CHEK2 | binding, competition with immobilised ligand | 1 µM |  | remaining binding | 100% |
| C=CC(=O)Nc1cccc(-c2cnc3[nH]cc(C(=O)NC(C)(C)C)c3n2)c1 | CHEK2 | kinase activity | 0.1 µM |  | inhibition | 17% and 10% |
| Nc1ncc(-c2cc(-c3cnn(CC(F)(F)F)c3)ncc2F)nc1C(=O)NC1CNCC(F)C1 (stereo not shown) | CHEK2 | enzyme activity | 1 µM | baseline: DMSO control | remaining activity | 2.83% |
| CC(C)=CC1OC(C)(C)C2C=C3C(=O)C(Cl)=CC(O)C3C3C(O)C4OC4C(=O)C132 (stereo not shown) | CHEK2 | cell-free assay, competition with immobilised ligand | 10 µM |  | remaining binding | 88% |
| CN1CCN(Cc2ccc(-c3ccc(CO[C@H]4CCC[C@@H]4NC(=O)c4cc(-c5cnn(C)c5)cnc4N)cc3)cc2)CC1 | CHEK2 | enzyme activity, inhibitor | 0.1 µM |  | inhibition | 55% |
| O=c1c(-c2ccc(Cl)c(CN3CCOCC3)c2)coc2cc(O)ccc12 | CHEK2 | enzyme activity, inhibitor | 1 µM |  | remaining activity | 114% |
| Nc1nc(Nc2ccccc2)sc1C(=O)c1ccccc1 | CHEK2 | enzyme activity, inhibitor | 10 µM |  | remaining activity | 27% |
| Cc1cccc(O[C@H]2CCC[C@@H](C(C)CNCc3ccncc3)C2)c1 (relative stereo) | CHEK2 | enzyme activity, inhibitor | 10 µM |  | inhibition | 3% |

Repeated from above:
| Compound | target | assay | setting | scale | endpoint | result |
| --- | --- | --- | --- | --- | --- | --- |
| C=CC(=O)N1Cc2nc(-c3cc(-c4cc(Cl)cnc4Cl)c(F)cc3F)n(-c3ccncn3)c2C1 | CHEK2 | cell-free assay, inhibitor | 1 µM |  | inhibition | 9.3% |
| COc1c(OCCCN2CCOCC2)ccc2c1N=C(NC(=O)c1cnc(N)nc1)N1CCN=C21 | CHEK2 | kinase activity, inhibitor | 1 µM | baseline: untreated control | remaining activity | 111% |
